Measured values of several laboratories.
Numbered parts are unrelated; each lists some results of a single study. Positions count from the first letter of the parent shown.

Series 1
Organism: Saccharomyces cerevisiae
Read-out: binding
Technique: competitive growth deep sequencing
Molecule type: peptide
Strain: cyclin E1-Cln2 fusion strain
Concentration: concentration not given
Setting: peptide tiling library
Direction: direction not given
Molecule | growth enrichment score
SPPRGRRLFPPGPAGF | 0.432
DSGFCLDSPGPLDSKE | -0.139
KSKHEEEEWTDDDLVE | 0.0305
PFSENVSAVQKLDFSD | 1.06
TTTTSPRTPPPLTVQD | -0.135
NEGVSNAVRRSLYIRD | 0.0299
KRRLDLETDHQY | 0.855
RQVRRDLFAF | -0.0559
GFGFLLFICKLTF | 0.523
RRRIKLPESDSSED | 0.49
SMTDFYHSKRRLIFSK | -0.364
NSMKELNFSHLPSNSV | 0.0478
RVSGLLSWTLSRVLWL | 0.574
LKGRRLVFDN | -0.0241
KVKRRLDLDIDGLQKE | 1.94

Series 2
Target: RNA binding protein fox-1 homolog 2, RRM domain, GST-SBP tag (RBFOX2, Homo sapiens, UniProt O43251-10, residues 100-194)
Technique: RNA Bind-n-Seq
Molecule type: RNA
Medium: in vitro
Concentration: 365 nM
Setting: natural RNA segment, single round, ends assumed
Relative to: no-protein control
Direction: higher = stronger binding
All sequences stand within: GGGAGUUCUACAGUCCGACGAUC … UGGAAUUCUCGGGUGCCAA
Residues (chain): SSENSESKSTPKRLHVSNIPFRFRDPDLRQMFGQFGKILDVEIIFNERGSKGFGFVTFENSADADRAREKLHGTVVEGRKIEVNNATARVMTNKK
Oligonucleotide | RBNS enrichment (R)
UUUGCAUCUGUGUGGCUUGCUUCCAGUCUGGCCUGUCCUUUCCAGCUGCCUUUUGUCUAGCCUGCUAUGGGGGGCCAGAUUAUCUUGAUAAGAGCAGGUGAUUUGGGGAC | 1.59
GCCAGGGGCAGGAAAUGAAGCCCUGCUGUCGGUCACCUCUACUAAAUCAAGCAAAUGGUCCUCUAUUAAGUAAAAAGUAGAAGAGCAAUGUGGUUCUUUUCAGUGUGCCU | 0.496
UUCAUGGUUUCUAGGAAAAGCUGCAUUGGGGUGGGGAGACCCAGUUUGCCUCAUAGGCAGAGGAUUCUCCAGGAAGCAUGGAAAAUGGAAUGUUUCCAUGCUUUACAGUG | 0.998
GCAGCAGAGUGAGGAGAUGAAGCUUACGUGUCCUGACGUUUUGUUGCUUAUACUGUGAUAUCUCAUCCUAGCUAAGCUCUAUAAUGCCCAAGACCCCAAACAGUACUUUU | 0.318
GUGGUGUUAAGACUGUAAUCCCAGCACUCAGGAAGCUGAGACAGGAGAAUUGCCGGGAGUACAAAGUCAACCGGAGCUAAAUAAUAUCAGCCACCAGGACUACAUAACGA | 0.448
UCAACAGGCCCUGGAGCCAGGACUGGAGUCUUGGCAGCUGAUGAGCAGCACCUUGCCGGCCAGGAGGAGCUGAUGCUGACGAUCUCCCCAACAUCUGAAGGCUUAAAGAA | 0.988
GUAUUUUGACAAAAUACGAAGUGGAGAUUUACACUACAUUGUACAAGGAAUGAAAGUGUCACGGGUAAAAACUCUAAAAGGUUAAUUUCUGUCAAAUGCAGUAGAUGAUG | 0.487
GAAUAUGUGAAUAACUUGACUUGCGUUGAUCUUUUUACAUAUUUAAUAAAAAAACUAUACGUUAAAAUCUGUCUGGACUUAUUCUUACGUUCUUAUCUGAGCAGUUAUCU | 0.299
ACACGAAGGCUGCCCCUGUAAGGUUUCAAUGCAUACAAUAAAAGAGCUUUAUCCCUAACUUCUGUUACUUCGUUCCUCCUCCUAUUUUGAGCUAUGCGAAAUAUCAUAUG | 0.623
ACCAAGAAGCAAAGUUCAACUUAUUUCAUAAUUGCCUACAUUUAUCAUGGUCCUGAAUGUAGCGUGUAAGCUUGUGUUUCUUGGGCAGUCUUUCUUGAAAUUGAAGAGGU | 0.594
UACUGGUAACCCCUGAACCAUUUCUCCAGCCCCCUUUGCCUAUCAUCCAUCUCAAGAUAGAACCUAAGUAUUUCACGUCUGACCAGCAGUCUCUGUGGUUCUGCACAGAU | 1.26
GUGCCCUGUUUCACUUAUAGGGUCUAGAAUGCUUGUGUUGAGUAAAAAGGAGAUGCCCAAUAUUCAAAGCUGCUAAAUGUUCUCUUUGCCAUAAAGACUCCGUGUAACUG | 0.611

Series 3
Target: ATF3, bZIP domain (human)
Technique: DHFR protein complementation
Medium: yeast
Setting: single substitutions, most at no-binding floor
Relative to: wild-type JUN-FOS pair
Direction: higher = stronger binding
Starting sequence: JUN, bZIP domain (human); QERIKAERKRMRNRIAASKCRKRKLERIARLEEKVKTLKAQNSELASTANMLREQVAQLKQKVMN; partner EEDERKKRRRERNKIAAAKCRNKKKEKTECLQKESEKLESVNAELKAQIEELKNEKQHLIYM
Change | binding fitness [natural log]
R30N | -0.156
A49G | -0.8
R30F | -0.0442
E54K | -0.281
V35L | -0.251
L31T | -0.745
A40S | -0.144
E44T | -0.308
E33D | -0.212
L59W | -0.813
K39Y | -0.532
S43L | -0.0906
V56L | -0.467
S43Y | -0.112
N42A | -0.508
E32S | -0.26
A46T | -0.0651
S47R | -0.0235
L31S | -0.781

Series 4
Target: Histone acetyltransferase KAT6A, winged helix 2, GST fusion (KAT6A, Homo sapiens, UniProt Q92794, residues 85-181)
Technique: protein binding microarray
Molecule type: double-stranded DNA, one strand shown
Medium: in vitro
Concentration: not given
Setting: 8-mer, flanks averaged, mean of 2 arrays, mostly near background
Relative to: not given
Direction: higher = stronger binding
Residues (chain): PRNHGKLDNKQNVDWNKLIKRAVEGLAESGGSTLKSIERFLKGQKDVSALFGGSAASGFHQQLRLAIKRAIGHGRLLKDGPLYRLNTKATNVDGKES
Oligonucleotide | E-score
CGTATGTC | -0.135
CATTTAAA | 0.19
TCATACAA | 0.0236
AATCTAGG | -0.00285
ATCACTCA | -0.0219
CAAGAGCA | 0.102
CCCGTACA | -0.323
GAGTTTCC | 0.0385
GCGCCTCA | -0.0233
GCCGAAAC | 0.131
GTGTGTTA | -0.064
AAGCGCTG | 0.0646
CCCACCAA | 0.0203
CATATCTC | -0.05
AATCAGAG | 0.0953
AGTCTTAC | -0.207
GGCCACAC | 0.0409
AGGGCAAG | 0.152
AACTCTTA | -0.0161
AAGCATTG | -0.0691
ACCACCAT | 7.5e-05
ATTAGATC | 0.0437
AAGCGAAG | 0.129
CCCTACAA | -0.0939
CGGTTCGA | 0.242

Series 5
Target: PABPC1L2, full length, GST fusion (mouse, UniProt A0ABA7IW68)
Technique: RNAcompete
Molecule type: RNA
Medium: in vitro
Concentration: 20 nM
Setting: 7-mer, probes averaged, single round
Relative to: mean of 7-mers
Direction: higher = stronger binding
Target sequence (chain): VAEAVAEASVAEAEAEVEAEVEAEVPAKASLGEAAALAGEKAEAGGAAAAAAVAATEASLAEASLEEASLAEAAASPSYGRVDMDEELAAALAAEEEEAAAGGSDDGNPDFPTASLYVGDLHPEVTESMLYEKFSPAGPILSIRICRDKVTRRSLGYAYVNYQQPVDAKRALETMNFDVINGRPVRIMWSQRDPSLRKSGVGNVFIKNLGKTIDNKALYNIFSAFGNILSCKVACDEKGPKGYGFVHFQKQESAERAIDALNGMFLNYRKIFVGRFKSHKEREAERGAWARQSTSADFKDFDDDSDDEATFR
Oligonucleotide | 7-mer Z-score
AAACACU | 1.64
CACGAAA | 0.959
ACCUAAA | 0.599
CGAUAAG | -0.0627
AUCAACU | -0.142
GGAGCGG | 0.323
AAAUUGC | 1.9
CAGACUC | -0.141
CUUUGUU | -0.447
GAGGUUU | -0.369
GAAGUGC | -0.146
UGACCUC | -0.202
UCGAAUA | 0.0152
UAUAUAC | -0.251
CUAUACC | -0.255
CACUACC | -0.284
UCCACUC | -0.291
GGUAGGC | 0.245
CGCCUAG | -0.262
CUAGCCC | -0.235
GACCAAU | -0.021
UAUUUCA | -0.175
UACACUG | -0.119

Series 6
Target: RING finger protein unkempt homolog, zinc fingers 1-6, GST-SBP tag (UNK, Homo sapiens, UniProt Q9C0B0, residues 30-357)
Technique: RNA Bind-n-Seq
Molecule type: RNA
Medium: in vitro
Concentration: not given
Setting: RNA with constant flanks, human-mouse chimeric sites, ends assumed
Relative to: input RNA pool
Direction: higher = stronger binding
All sequences stand within: GGGAGUUCUACAGUCCGACGAUC … CAACAGAGGAUUGAGCAUCA
Residues (chain): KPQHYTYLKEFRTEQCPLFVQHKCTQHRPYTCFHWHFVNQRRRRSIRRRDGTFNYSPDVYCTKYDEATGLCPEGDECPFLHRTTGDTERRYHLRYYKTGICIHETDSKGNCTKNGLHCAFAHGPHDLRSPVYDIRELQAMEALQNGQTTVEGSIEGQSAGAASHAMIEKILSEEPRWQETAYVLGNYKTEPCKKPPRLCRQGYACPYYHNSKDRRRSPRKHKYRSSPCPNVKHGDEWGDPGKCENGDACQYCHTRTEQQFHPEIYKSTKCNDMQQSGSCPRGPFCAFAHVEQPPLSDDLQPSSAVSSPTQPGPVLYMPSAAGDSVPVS
Oligonucleotide | bound/input enrichment
GUUGCCAGCUUCCGGUUCCGUUGGGCUCGGUUCUCUCCUGAGCUACGGUCCCUGGCACUCUCAAUCCGCCAUCCAACAAACAUGGAUGAUCAGGUAAAGUUUGUGGAGCCCAGCCGGCAG | 0.14 ratio
CUGUGACCACAAGAUCCUACCUGAGUGGCAGCUGAAGCACUUUUCUUCUCCUUGCCUGAACCCCCCCCUUUUGUUCCCCCAUCCCCCAGUGUCGGCUGAGAUGUUGCCUCUGCACGGUUC | 0.642 ratio
UUACCCGAAAAUGAAGAUGAGCUGGAGAGCACCAACAGGCGCUACACCAAGAGGGACUGCAGCACUUUCCUCAGAACUAGCGAGACGGGCAUCGUGGACCAGGUCAUGGUCACUCUCAAC | 0.164 ratio
AUGGAGAAGGAUUCUCUGCCCCGCUUUGUGCGCUCUGAAUUUUAUAAGGAGUUAAUCAAGUAGUCAUUUAGCCAGGCUUCCAAAAGUUGCCCUGUGAGUUGAGUUACAUCCUUUGUAGCA | 1.06 ratio
GCGGCAGAAUCAUGGUGGACAUAAUGCAGCUCCCCAAGUCGCGCAUCAACGCCAGCAUGUUACCACAGUAUAUCGACCGGCCCGUGUGCUUCGUGGGGAAGCUGGAAAAGAUUCAUCCCA | 0.0811 ratio
GUAUACGGUUAUCGAGGAAAGGACUGUAGAGCGAAUGUUUACCUUCUUCCGACCGGGGAGAUAGUUUAUUUUAUCGCCUCAGUGGUAGUCCUGUUUAAUUAUGAGGAGAGGACUCAGCGA | 0.323 ratio
CUGGCACUCUAUCAGAUAUAUUAAUUUUUUAAUGUAGAUGUAAUUUUAAAAAUGAAUGGCUACUUUACACGUUUAACUAGGCUCUUACUAUAUAUGUGUACAUAUGUAUAUAUAUAUAUA | 3.08 ratio
GCAAGAGAUGAUGAGGCGGCAGCUGUUGCCCUUUCCUCUCUCGUUCAUGCUUUGGAUGAGUUAAACAUGGUGGCCAUCGUCCGAUAUGCUUAUGACAAAAGAUCUAAUCCUCAAGUUGGU | 0.142 ratio
GUAGCUGGGACUACAGAAAUGCUGGUAAUUUCAGUCACUUGCUGAUGACUUCUGAUGUCCCAGCAAAUGUUGGCAUUCACUGCAAUAGAGAAGAUACUUCUGAGGACCCACGUCUAAGGU | 0.162 ratio
GCUCUUGGGAAUGUAAUCAGCGCCUUGGGAGACAAGAGCAAGAGAGCCACACAUGUCCCUUACAGAGACUCUAAGCUGACAAGACUCUUGCAGGAUUCCCUUGGGGGUAACAGCCAAACC | 0.102 ratio
AAAGAACCUCUCUCUGAUGAAGAUGAGGAAGACAAUGAUGAUGUUGAACCUAUUACUGAAUUUCGAUUUGUGCCCAGUGAUAAAUCAGCAUUGGAGGCGAUGUUCACAGCAAUGUGUGAG | 0.272 ratio

Repeated from above (series 4):
Oligonucleotide | E-score
CCCGTACA | -0.323
GAGTTTCC | 0.0385
GCGCCTCA | -0.0233
GCCGAAAC | 0.131
GTGTGTTA | -0.064
AAGCGCTG | 0.0646
CCCACCAA | 0.0203
